Measured values from different studies.
Numbered parts are unrelated; each lists some results of a single study. Positions count from the first letter of the parent shown.
Sequence of UniProt P68036 (whole entry, looked up): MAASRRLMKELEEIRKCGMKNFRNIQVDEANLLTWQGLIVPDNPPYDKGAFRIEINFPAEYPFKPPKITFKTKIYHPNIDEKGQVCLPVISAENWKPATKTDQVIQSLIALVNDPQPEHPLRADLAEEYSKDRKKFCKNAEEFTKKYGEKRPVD
Sequence of UniProt Q9Y385 (whole entry, looked up): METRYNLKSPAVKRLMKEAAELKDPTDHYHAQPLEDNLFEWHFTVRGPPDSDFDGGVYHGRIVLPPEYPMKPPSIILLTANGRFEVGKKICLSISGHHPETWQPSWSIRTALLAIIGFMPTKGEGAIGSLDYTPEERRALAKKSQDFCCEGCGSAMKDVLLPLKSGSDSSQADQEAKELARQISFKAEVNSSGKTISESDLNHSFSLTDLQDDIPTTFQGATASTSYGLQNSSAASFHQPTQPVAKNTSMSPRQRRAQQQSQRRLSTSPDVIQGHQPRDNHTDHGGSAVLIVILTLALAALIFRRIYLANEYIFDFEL
Sequence of UniProt Q9H832 (whole entry, looked up): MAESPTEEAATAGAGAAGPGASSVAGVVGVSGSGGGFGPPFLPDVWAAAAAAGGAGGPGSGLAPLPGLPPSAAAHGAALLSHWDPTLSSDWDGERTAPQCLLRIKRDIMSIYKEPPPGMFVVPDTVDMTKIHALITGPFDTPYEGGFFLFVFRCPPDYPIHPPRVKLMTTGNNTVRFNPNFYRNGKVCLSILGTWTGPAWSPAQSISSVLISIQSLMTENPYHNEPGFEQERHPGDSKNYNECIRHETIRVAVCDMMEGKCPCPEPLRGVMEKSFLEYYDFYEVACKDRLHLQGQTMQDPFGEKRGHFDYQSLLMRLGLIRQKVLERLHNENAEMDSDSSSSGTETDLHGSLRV
Sequence of UniProt P63146 (whole entry, looked up): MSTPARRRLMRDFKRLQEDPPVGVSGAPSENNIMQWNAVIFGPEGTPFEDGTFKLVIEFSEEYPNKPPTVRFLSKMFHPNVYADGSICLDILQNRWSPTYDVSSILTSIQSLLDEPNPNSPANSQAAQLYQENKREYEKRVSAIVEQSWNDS
Sequence of UniProt Q8N2K1 (whole entry, looked up): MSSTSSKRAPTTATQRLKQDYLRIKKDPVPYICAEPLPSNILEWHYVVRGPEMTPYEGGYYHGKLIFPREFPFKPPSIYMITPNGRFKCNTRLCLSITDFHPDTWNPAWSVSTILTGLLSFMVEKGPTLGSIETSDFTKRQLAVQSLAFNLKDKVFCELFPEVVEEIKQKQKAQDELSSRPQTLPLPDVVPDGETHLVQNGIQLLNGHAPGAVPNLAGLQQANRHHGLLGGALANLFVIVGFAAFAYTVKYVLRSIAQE
Sequence of UniProt Q9NPD8 (whole entry, looked up): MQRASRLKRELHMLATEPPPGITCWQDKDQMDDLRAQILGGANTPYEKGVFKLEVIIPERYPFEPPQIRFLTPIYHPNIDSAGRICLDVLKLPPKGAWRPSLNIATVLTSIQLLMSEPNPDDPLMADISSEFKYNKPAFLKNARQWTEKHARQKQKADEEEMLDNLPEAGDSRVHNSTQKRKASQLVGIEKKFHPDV
Sequence of UniProt O00762 (whole entry, looked up): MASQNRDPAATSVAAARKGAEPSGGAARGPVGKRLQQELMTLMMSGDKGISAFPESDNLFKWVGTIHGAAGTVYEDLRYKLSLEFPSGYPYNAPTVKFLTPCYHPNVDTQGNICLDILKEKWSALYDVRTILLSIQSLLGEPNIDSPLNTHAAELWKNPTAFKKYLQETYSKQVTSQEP
Sequence of UniProt Q9C0C9 (whole entry, looked up): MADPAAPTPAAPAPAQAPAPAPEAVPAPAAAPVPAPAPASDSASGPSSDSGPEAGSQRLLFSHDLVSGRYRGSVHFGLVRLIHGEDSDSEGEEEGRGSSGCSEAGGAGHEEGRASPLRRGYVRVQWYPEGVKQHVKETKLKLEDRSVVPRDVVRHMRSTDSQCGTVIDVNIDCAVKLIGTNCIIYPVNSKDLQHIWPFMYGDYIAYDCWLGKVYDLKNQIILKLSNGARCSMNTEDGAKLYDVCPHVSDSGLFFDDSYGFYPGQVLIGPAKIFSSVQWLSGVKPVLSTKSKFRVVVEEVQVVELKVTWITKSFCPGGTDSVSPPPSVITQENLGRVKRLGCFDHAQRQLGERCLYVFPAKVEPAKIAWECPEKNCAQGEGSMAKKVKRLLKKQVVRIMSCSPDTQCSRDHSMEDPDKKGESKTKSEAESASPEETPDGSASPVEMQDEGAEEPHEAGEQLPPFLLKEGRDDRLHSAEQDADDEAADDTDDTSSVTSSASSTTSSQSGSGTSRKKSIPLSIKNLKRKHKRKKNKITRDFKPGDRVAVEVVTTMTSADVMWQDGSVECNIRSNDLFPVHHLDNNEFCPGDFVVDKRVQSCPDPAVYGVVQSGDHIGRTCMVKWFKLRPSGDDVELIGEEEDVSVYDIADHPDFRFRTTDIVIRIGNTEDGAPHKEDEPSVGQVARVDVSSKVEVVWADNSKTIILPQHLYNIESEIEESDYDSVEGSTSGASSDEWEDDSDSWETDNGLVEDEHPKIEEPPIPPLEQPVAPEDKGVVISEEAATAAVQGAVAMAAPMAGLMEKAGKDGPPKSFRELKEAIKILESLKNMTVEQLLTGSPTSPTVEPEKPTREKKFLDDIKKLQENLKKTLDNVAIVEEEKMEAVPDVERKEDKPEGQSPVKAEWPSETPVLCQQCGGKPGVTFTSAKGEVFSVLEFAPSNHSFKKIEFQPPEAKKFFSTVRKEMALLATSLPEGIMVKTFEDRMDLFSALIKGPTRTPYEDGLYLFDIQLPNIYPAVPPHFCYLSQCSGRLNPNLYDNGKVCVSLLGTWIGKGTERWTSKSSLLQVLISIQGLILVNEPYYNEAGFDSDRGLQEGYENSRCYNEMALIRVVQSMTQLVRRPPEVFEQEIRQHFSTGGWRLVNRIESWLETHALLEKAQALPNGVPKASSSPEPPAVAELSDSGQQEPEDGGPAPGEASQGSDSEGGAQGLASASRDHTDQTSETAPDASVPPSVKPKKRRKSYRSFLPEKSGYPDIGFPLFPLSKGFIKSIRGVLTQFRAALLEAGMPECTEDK

Study 1
Target: Histone acetyltransferase KAT6A, winged helix 1, GST fusion (KAT6A, Homo sapiens, UniProt Q92794, residues 1-85)
Method: protein binding microarray
Form: double-stranded DNA, one strand shown
Medium: in vitro
Concentration: not given
Setting: 8-mer, flanks averaged, mean of 2 arrays, mostly near background
Reference: not given
Direction: higher = stronger binding
Residues (chain): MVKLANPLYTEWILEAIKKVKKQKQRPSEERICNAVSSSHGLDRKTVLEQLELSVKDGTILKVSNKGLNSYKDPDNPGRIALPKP
| Oligonucleotide | E-score |
| --- | --- |
| CAACTAGC | -0.0132 |
| ATAGAGCG | 0.166 |
| GAAGCATC | -0.239 |
| AGTCGGGC | 0.133 |
| CGACGGGC | 0.435 |
| TCAAATAA | -0.142 |
| CGTCTAAA | -0.046 |
| GAGCGCCA | 0.279 |
| CTTCGCAC | 0.0803 |
| GCGTGCGA | 0.285 |
| CGCTGAGC | 0.265 |
| GAGCTTGC | -0.0976 |
| GTAAAAAA | 0.0427 |
| CATAATTC | -0.00411 |
| GAAATTCC | -0.036 |
| CAAGAGCG | 0.163 |

Study 2
Target: Sal-like protein 4, full length isoform A (SALL4, Homo sapiens, UniProt Q9UJQ4, residues 1-1053)
Sequence of UniProt Q9UJQ4 (whole entry, looked up): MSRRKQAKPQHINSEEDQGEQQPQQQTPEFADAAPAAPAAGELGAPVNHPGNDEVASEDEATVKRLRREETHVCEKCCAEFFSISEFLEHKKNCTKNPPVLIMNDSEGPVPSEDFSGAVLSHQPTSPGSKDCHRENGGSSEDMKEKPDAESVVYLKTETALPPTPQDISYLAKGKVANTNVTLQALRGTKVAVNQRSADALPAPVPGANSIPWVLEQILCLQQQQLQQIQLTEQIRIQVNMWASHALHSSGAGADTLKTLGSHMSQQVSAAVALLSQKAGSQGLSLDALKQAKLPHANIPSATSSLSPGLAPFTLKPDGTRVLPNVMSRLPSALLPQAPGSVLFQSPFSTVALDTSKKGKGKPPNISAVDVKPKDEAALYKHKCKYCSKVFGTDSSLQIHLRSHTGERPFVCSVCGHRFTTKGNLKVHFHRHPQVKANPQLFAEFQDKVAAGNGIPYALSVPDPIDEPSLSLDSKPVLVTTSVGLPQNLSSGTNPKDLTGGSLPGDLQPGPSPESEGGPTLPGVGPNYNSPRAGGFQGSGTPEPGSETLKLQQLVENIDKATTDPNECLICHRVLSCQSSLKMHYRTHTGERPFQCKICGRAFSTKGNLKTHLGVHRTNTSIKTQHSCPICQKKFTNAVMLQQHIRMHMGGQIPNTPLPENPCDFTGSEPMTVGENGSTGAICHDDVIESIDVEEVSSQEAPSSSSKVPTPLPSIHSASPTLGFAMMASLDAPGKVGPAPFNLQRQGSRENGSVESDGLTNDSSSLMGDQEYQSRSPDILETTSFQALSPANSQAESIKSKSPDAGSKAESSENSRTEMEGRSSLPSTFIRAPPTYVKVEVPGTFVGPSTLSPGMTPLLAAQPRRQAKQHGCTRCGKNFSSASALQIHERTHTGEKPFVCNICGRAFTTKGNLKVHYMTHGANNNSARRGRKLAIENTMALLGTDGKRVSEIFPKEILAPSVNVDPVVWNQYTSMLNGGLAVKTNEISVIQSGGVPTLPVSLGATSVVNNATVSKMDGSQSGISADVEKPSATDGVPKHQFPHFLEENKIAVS
Method: universal PBM
Form: double-stranded DNA, one strand shown
Medium: in vitro
Concentration: 600 nM
Setting: 8-mer, flanks averaged, mean of replicates
Direction: higher = stronger binding
| Oligonucleotide | E-score |
| --- | --- |
| CGCTGCCC | -0.38 |
| CCTGGCAA | -0.25 |
| CCATGACG | -0.164 |
| AAGTGTCC | -0.131 |
| CCCAATAA | 0.212 |
| TAACTTCA | 0.232 |
| CCAACTGC | -0.23 |
| GGACGAGA | -0.0512 |
| GCGATCGC | -0.0869 |
| TACACGTA | 0.0847 |
| GCATGCAC | -0.0639 |
| ATAATACG | 0.27 |
| CCAAACAG | -0.0278 |
| ATCATGCC | 0.0926 |
| AATCAATG | 0.262 |
| CTGGCGCC | -0.361 |
| AGGGCTAT | -0.187 |
| GCACACCC | -0.302 |
| AACTCGGC | -0.12 |
| GTGGGTAA | -0.127 |
| AGGGGTCA | -0.11 |
| AGCATGGA | -0.0685 |
| CTCGTTAC | -0.00265 |
| TAGCAGAA | 0.0328 |
| CATCCGCA | -0.0263 |

Study 3
Sequence: B1 (RNF186 RING domain)
Method: yeast two-hybrid
Medium: yeast
Setting: mostly zero background
Reference: not given
Direction: higher = stronger interaction
B1: RNF186 RING domain (UniProt Q9NXI6); chain HSGSTECDLECLVCREPYSCPRLPKLLACQHAFCAICLKLLLCVQDNTWSITCPLCRKVTAVPGGLI
| target | lacZ reporter activity |
| --- | --- |
| UBE2J1 UBC core domain (UniProt Q9Y385) | 0 |
| UBE2O UBC core domain (UniProt Q9C0C9) | 0 |
| UBE2I UBC core domain (UniProt P63279) | 0 |
| BIRC6 UBC core domain (UniProt Q9NR09) | 0 |
| UBE2T UBC core domain (UniProt Q9NPD8) | 0 |
| UBE2B UBC core domain (UniProt P63146) | 0 |
| UBE2Z UBC core domain (UniProt Q9H832) | 0 |
| UBE2C UBC core domain (UniProt O00762) | 0 |
| UBE2L3 UBC core domain (UniProt P68036) | 0 |
| UBE2J2 UBC core domain (UniProt Q8N2K1) | 9100 |

Study 4
Target: Eukaryotic initiation factor 4A-I (EIF4A1, Homo sapiens, UniProt P60842, residues 1-406, full length assumed)
Sequence of UniProt P60842 (whole entry, looked up): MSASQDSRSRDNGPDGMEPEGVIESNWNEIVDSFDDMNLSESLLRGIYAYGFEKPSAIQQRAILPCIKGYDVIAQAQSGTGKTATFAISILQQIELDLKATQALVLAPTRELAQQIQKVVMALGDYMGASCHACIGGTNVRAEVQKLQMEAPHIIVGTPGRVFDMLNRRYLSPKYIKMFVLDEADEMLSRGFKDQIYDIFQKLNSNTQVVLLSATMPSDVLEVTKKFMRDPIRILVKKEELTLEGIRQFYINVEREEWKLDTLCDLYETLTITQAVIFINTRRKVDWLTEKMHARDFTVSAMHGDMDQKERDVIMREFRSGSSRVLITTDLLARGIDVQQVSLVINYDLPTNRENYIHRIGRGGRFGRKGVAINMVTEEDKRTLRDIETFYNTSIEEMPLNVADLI
Method: RNA Bind-n-Seq
Form: RNA
Medium: in vitro
Concentration: not given
Setting: 4-mer, random 30-nt RNA, single round
Added: RocA, ADP, phosphate
Reference: input library
Direction: higher = stronger binding
| Oligonucleotide | 4-mer enrichment |
| --- | --- |
| CCAC | 0.607 fold |
| UAAC | 0.687 fold |
| AACU | 0.698 fold |
| UGGA | 1.88 fold |
| CCGA | 0.822 fold |
| UGAG | 2.79 fold |
| AGCA | 1.28 fold |
| GCUG | 0.828 fold |
| GAGA | 3.78 fold |
| CGCG | 0.743 fold |
| UUUG | 1.11 fold |
| UGGU | 0.955 fold |
| CGGC | 0.641 fold |
| UUAA | 0.994 fold |
| CCCG | 0.662 fold |
| AGCU | 0.961 fold |
| UAGG | 1.12 fold |
| GUGU | 1.18 fold |

Study 5
Target: CCNE2, cyclin fold, Cln2 fusion (human)
Method: yeast growth competition, sequencing
Medium: yeast
Setting: weak parent motif
Reference: not given
Direction: higher = stronger binding
Starting sequence: E2F7 docking peptide (human); SSAQRRLEIPSGG; partner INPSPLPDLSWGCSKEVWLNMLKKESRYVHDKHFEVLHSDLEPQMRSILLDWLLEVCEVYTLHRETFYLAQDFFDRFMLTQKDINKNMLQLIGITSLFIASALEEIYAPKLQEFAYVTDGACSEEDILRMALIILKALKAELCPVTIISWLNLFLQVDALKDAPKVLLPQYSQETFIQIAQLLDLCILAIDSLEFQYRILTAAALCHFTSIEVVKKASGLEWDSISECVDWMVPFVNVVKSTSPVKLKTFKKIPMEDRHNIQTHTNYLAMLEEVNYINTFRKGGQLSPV
| Change | normalised enrichment score |
| --- | --- |
| Q4A | 0.663 |
| P10A | -0.108 |
| R6A | -0.96 |
| R5K I9F | 0.334 |
| R5A L7A | -0.144 |
| R5A | 0.138 |
| G12A | -0.156 |
| E8A | 0.545 |
| I9L | 0.451 |

Study 6
Target: Interferon regulatory factor 7, full length, phosphomimetic (IRF7, Homo sapiens, UniProt Q92985, residues 1-503, S101K/S471D/S472D/S475D/S476D/S477D/S483D/S484D/S487D)
Method: protein-binding microarray
Form: double-stranded DNA, one strand shown
Medium: in vitro
Concentration: 250 nM
Setting: 60-bp whole probe
Added: salmon DNA 0.4 mg/ml
Reference: random background probes
Direction: higher = stronger binding
Constant ends, left off below: GCCTAGCAC … GTCTTGATTCGCTTGACGCTGCTG
Target sequence (chain): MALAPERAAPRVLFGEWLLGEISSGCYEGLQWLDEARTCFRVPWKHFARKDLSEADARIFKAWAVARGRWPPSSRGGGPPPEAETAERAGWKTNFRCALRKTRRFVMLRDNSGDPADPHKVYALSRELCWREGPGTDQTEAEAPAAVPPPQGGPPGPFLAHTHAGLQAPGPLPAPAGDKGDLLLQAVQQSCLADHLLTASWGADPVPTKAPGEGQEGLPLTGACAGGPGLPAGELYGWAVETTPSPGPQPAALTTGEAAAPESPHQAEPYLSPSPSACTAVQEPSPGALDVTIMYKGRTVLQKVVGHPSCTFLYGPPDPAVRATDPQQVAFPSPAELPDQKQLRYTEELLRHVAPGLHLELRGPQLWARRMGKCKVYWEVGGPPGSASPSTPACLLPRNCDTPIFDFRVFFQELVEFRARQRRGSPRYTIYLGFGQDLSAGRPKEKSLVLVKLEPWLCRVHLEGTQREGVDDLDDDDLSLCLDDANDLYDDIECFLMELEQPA
| Oligonucleotide | log fluorescence |
| --- | --- |
| TTAGCTTTCGGTTTCGGTTAGTGCTAG | 10.8 z-score |
| GACGGATCCGGTTTCGGGACGTGCTAG | 4.97 z-score |
| ATCCATCTCAAGTAGCCTAGCGTGCTA | -0.133 z-score |
| GACGATATCAGGCTCGAGACGTGCTAG | 0.175 z-score |
| GACCGTCTCGGTATCGGGACGTGCTAG | 0.913 z-score |
| GACGATTTCAGTATTGAGACGTGCTAG | 0.286 z-score |
| GACGGTCTCCTACTGTTGACGTGCTAG | -0.0575 z-score |
| TTGTCTCCCCCATCTTGTTCCGTGCTA | 0.185 z-score |
| TCATTTTCCCCCCTCACACTGTGCTAG | 2.46 z-score |
| GCTTTTATGGTATTTTTTTCGTGCTAG | 1.28 z-score |
| TTAGGTTTCGACTTTCGTTTAGTGCTA | 11.5 z-score |
| TACTATATGCATGTAAATAAGTGCTAG | 0.32 z-score |
| GACGATATTAGTCTCGAGACGTGCTAG | 0.833 z-score |
| TCACTTATTAAGATTGTGACTGTGCTA | 0.312 z-score |
| TCAGCCAGCTCTTTCGTACTGTGCTAG | -0.774 z-score |
| GGCGATATCGGGTTTCGAGACGTGCTA | 2.43 z-score |
| TATCAGCAAACTTTTCTTGAGTGCTAG | -0.109 z-score |
| TTAGGACTGGGTCTCGGGTAGTGCTAG | 0.0598 z-score |
| GACGGGCTGGACTATCGGGACGTGCTA | -1.09 z-score |

Excerpt of the above (study 3):
| target | lacZ reporter activity |
| --- | --- |
| UBE2C UBC core domain (UniProt O00762) | 0 |
| UBE2O UBC core domain (UniProt Q9C0C9) | 0 |
| UBE2J2 UBC core domain (UniProt Q8N2K1) | 9100 |
| UBE2I UBC core domain (UniProt P63279) | 0 |
| UBE2Z UBC core domain (UniProt Q9H832) | 0 |
| UBE2T UBC core domain (UniProt Q9NPD8) | 0 |
| UBE2J1 UBC core domain (UniProt Q9Y385) | 0 |
| BIRC6 UBC core domain (UniProt Q9NR09) | 0 |
| UBE2L3 UBC core domain (UniProt P68036) | 0 |
| UBE2B UBC core domain (UniProt P63146) | 0 |
